Published values of several laboratories.
A part holds a random share of what one study measured. Changes are numbered by the printed parent chain.

Series 1
Target: Sal-like protein 4, full length isoform B (SALL4, Homo sapiens, UniProt Q9UJQ4-2, residues 1-616)
Method: universal PBM
Molecule type: double-stranded DNA, one strand shown
Sample: in vitro
Concentration: not given
Notes: 8-mer, flanks averaged, mean of replicates
Reading: higher = stronger binding
Oligonucleotide | E-score
ATATTAAG | 0.393
CATCGCCG | -0.168
ACTTGCTA | 0.0093
CAGCAAAC | -0.0494
GCGTACAA | -0.087
ACGTCCAC | -0.0871
CCCTAGCA | -0.168
CAGCCGCG | -0.332
CCTATTAC | 0.205
AAGACGGT | 0.0212
GAGGAATA | 0.167
ACTCCTCC | -0.208
ACGATGTA | 0.164
GCGTCCAA | -0.125
CAATTTAA | 0.318
ATGCAAAC | 0.0977
CTATGCAC | -0.0319
AGAGGTGA | 0.0488
ATCTATCC | 0.161
CAGCTGAG | -0.185
AAAGATCT | 0.00791
TAATTCAA | 0.329
ACCCTGTG | -0.201
CTTGAAGC | -0.00811
GGGTTCAA | -0.108

Series 2
Target: Protein C-ets-1 (ETS1, Homo sapiens, UniProt P14921, residues 1-441, K379A, full length assumed)
Chain of UniProt P14921 (whole entry, unmodified, looked up): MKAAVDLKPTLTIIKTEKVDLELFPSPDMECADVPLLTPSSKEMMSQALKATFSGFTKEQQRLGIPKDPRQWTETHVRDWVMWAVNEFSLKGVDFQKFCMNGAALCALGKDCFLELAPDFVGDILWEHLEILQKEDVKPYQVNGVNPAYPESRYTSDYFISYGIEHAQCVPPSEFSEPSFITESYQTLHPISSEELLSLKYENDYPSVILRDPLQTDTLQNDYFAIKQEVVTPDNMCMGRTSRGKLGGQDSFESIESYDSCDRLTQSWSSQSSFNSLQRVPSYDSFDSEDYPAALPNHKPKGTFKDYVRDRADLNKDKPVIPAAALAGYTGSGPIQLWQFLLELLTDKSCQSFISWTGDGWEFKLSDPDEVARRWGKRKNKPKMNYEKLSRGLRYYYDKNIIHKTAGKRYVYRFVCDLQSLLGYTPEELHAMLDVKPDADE
Method: protein-binding microarray
Molecule type: double-stranded DNA, one strand shown
Sample: in vitro
Concentration: not given
Notes: k-mer, scored over probes, only values ≥0.25
Reading: higher = stronger binding
Oligonucleotide | E-score
ATCCCCGG | 0.284
CATCCGGG | 0.35
CGCATGCC | 0.256
CGTTAGAA | 0.267
CCCGGTAA | 0.384
AGAACCGG | 0.346
CGGAAAAG | 0.287
TATCAACA | 0.283
GCCGGAAA | 0.406
AATATACA | 0.279
CACACCGG | 0.338
ACACTTGC | 0.289
ATTACCGA | 0.292
GGATATAA | 0.261
CCGCAACA | 0.294
CTCCGGTA | 0.41
TGGTAACA | 0.251

Series 3
Target: ABI1, truncated, D143A, DHFR fusion (Arabidopsis thaliana)
Method: DHFR PCA, deep sequencing
Sample: yeast
Notes: methotrexate growth selection, single substitutions
Together with: (+)-ABA 0.39 µM
Relative to: wild-type fitted maximum
Reading: higher = stronger binding
Parent: PYL1, truncated, DHFR fusion (Arabidopsis thaliana); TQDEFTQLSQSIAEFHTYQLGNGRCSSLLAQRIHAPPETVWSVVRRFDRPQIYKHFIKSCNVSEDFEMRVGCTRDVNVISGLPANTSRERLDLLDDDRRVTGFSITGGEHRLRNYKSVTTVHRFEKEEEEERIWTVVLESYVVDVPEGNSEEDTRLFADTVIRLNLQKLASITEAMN
Change | relative binding score [%]
S59L | -2.94
S171C | 26.1
Y53T | -16.4
D48V | -8.98
V143R | 7.65
L138V | -5.49
V62D | -6.83
E129S | 55.1
E4C | 32.1
Q10I | 7.43
N165I | -24.4
H110I | 9.12
M176V | 16.8
F5D | 12.3
G148L | -14.8
D96Q | 3.59

Series 4
Target: Histone acetyltransferase KAT6A, both winged helices, GST fusion (KAT6A, Homo sapiens, UniProt Q92794, residues 1-181)
Method: protein binding microarray
Molecule type: double-stranded DNA, one strand shown
Sample: in vitro
Concentration: not given
Notes: 8-mer, flanks averaged, mean of 2 arrays, mostly near background
Relative to: not given
Reading: higher = stronger binding
Target sequence (chain): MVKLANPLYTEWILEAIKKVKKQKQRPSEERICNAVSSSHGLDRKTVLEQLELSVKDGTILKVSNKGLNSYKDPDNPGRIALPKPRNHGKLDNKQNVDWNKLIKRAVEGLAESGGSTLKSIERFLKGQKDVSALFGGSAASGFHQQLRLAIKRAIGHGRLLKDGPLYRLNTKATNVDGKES
Oligonucleotide | E-score
CCGCAATC | 0.192
TCCAAGAA | -0.0179
AAAATAAA | -0.177
GACAGTAA | -0.129
CGGGACTA | 0.173
ACACTCCA | -0.096
ACCCCTCT | -0.257
CATCAGAA | -0.066
ATCCCGCG | 0.35
CGCGGTCA | 0.279
CCTAACCA | -0.181
ATCCAATG | -0.0956
AACTTCGC | 0.133
ACTTGCAG | -0.17
AAAGAGGG | -0.178
AAGCACCA | -0.162
ATGGGGGG | -0.297
CGGGACTC | 0.215
AGCTTGGA | -0.207
ATGGGGGA | -0.241
TTCACGAA | 0.0559
GCCATATA | 0.0551
ACTAGTCT | -0.174

Series 5
Target: CCND3, cyclin fold, Cln2 fusion (human)
Method: yeast growth competition, sequencing
Sample: yeast
Notes: weak parent motif
Relative to: not given
Reading: higher = stronger binding
Parent: CDC25A docking peptide (human); PPHRRRLLFACSP; partner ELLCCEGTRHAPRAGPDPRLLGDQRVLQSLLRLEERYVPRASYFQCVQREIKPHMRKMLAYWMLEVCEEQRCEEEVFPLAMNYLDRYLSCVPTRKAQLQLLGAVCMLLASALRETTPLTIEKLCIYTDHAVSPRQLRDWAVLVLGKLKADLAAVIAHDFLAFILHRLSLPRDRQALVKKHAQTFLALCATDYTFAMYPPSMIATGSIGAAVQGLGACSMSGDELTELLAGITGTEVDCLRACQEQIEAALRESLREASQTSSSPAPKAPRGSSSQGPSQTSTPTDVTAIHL
Change | normalised enrichment score
R6S | 0.12
A10Y | 0.0773
C11V | 0.171
C11M | 0.0834
H3G | 0.107
R6G | 0.0943
H3C | 0.159
A10F | 0.176
L7Y | 0.137
L7P | 0.0733
S12F | 0.103
R4F | 0.139
P2Y | 0.141
R5D | 0.033
H3A | 0.0933
L7H | 0.111
P1C | 0.059
L7G | 0.0959

Series 6
Target: Interferon regulatory factor 7, full length, phosphomimetic (IRF7, Homo sapiens, UniProt Q92985, residues 1-503, S101K/S471D/S472D/S475D/S476D/S477D/S483D/S484D/S487D)
Chain of UniProt Q92985 (whole entry, unmodified, looked up): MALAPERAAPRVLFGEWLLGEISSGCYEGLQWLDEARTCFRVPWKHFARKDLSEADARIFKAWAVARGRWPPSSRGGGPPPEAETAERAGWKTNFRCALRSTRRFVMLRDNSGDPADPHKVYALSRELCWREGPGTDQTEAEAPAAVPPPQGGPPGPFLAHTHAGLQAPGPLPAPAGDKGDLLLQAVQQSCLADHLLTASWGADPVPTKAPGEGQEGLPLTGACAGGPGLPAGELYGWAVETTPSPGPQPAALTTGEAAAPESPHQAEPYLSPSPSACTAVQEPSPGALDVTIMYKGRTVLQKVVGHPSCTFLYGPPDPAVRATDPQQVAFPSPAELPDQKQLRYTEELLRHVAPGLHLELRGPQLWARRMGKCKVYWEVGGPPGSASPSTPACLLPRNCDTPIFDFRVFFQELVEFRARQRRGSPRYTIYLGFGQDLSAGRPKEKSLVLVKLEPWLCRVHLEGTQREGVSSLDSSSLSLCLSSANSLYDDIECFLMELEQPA
Method: protein-binding microarray
Molecule type: double-stranded DNA, one strand shown
Sample: in vitro
Concentration: 250 nM
Notes: 60-bp whole probe
Together with: salmon DNA 0.4 mg/ml
Relative to: random background probes
Reading: higher = stronger binding
Constant ends, left off below: GCCTAGCAC … GTCTTGATTCGCTTGACGCTGCTG
Oligonucleotide | log fluorescence
TCTTTTTTTCTTTTATTAGTGTGCTAG | 2.09 z-score
CCAGTTGAGCACAGGAAAGTGTGCTAG | 0.119 z-score
TTTTTTTTTTCCCTGAAAAAGTGCTAG | 1.88 z-score
TGACTTTTGAGAGATGGAAACGTGCTA | 0.0172 z-score
TCAATTTTGTGTTTTCAACTGTGCTAG | 0.521 z-score
TTCGGTATCGACTATCGGTTAGTGCTA | 0.605 z-score
GACGATATCGGGTATCAAGACGTGCTA | -0.329 z-score
TCATGTTTTCATTTTATACTGTGCTAG | 2.87 z-score
TTAGGTTTCGGGTTTTGGTTAGTGCTA | 9.68 z-score

Series 7
Target: Ras GTPase-activating protein-binding protein 1, RRM domain (G3BP1, Homo sapiens, UniProt Q13283)
Chain of UniProt Q13283 (whole entry, looked up): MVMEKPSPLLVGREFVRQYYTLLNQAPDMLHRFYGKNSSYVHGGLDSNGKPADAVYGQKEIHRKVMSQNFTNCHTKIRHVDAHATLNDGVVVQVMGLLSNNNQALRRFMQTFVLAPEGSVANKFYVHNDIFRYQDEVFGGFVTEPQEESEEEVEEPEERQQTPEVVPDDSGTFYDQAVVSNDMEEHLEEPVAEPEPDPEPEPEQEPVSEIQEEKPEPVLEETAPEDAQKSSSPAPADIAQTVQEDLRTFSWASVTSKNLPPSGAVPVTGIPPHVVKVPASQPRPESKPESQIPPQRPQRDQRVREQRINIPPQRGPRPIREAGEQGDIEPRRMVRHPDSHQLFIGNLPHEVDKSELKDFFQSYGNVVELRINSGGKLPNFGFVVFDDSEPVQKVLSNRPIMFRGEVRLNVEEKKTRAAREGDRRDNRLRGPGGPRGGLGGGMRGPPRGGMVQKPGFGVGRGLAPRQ
Method: RNA Bind-n-Seq
Molecule type: RNA
Sample: in vitro
Concentration: 1 µM
Notes: whole 134-nt RNA, ends assumed
Together with: 150 mM KCl
Relative to: input library
Reading: higher = stronger binding
Constant ends, left off below: GGGAGUUCUACAGUCCGACGAUC … UGGAAUUCUCGGGUGUCAAGG
Oligonucleotide | log2 enrichment
AGUCCUGUGCUACACAUCGUAUGUACCGAAUCAAACCCCCCCAAAUUUAAAUUUAAAAAAGUAUUAUGUUACGCCGUUCGGAUCUGCACU | -0.114
CACAGACAACACGCACCCACACACACACAGAGGGAAGGGGUUGGGAUGGGGACAGGGUGCACAGCAGGGCGGGGUAGGACCCCAGCCCCU | -0.0233
UGGGAGGUGGAUUUUGUUUAUUUUUUUAGCUCAUUUCCAGGGGUGGGAAUUUUUUUUUAAUAUGUGUCAGGAAUAAAGUUGUUUUUGAAA | 1.92
UCCUGUGCUACACAUCGUAUGUACCGAAUCAAACCCCCCCAAAUUUAAAUUUUUUUAAAAAAGUAUUAUGUUACGCCGUUCGGAUCUGCA | -0.363
CAAGUCCUGUGCUACACAUCGUAUGUACCGAAUCGUGUGUGUGUGUGUGUGUGUGAAAGUAUUAUGUUACGCCGUUCGGAUCUGCACUUC | 0.0431
CCUGUGCUACACAUCGUAUGUACCGAAUCGGGGAAAAAAAGGGGUGGGGUUUUUUUGGGGAAAGUAUUAUGUUACGCCGUUCGGAUCUGC | 0.427
UCAAGUCCUGUGCUACACAUCGUAUGUACCGAAUCGGGCCCGGCCCGGGCCCGGGAAAGUAUUAUGUUACGCCGUUCGGAUCUGCACUUC | -0.541
UCCUCAAGUCCUGUGCUACACAUCGUAUGUACCGAAUCGGUGGAAAGGAGGAAAGUAUUAUGUUACGCCGUUCGGAUCUGCACUUCCAGC | -0.159

Excerpt of the above (series 3):
Change | relative binding score [%]
D48V | -8.98
V143R | 7.65
L138V | -5.49
V62D | -6.83
E129S | 55.1
E4C | 32.1
Q10I | 7.43
N165I | -24.4
H110I | 9.12
M176V | 16.8
F5D | 12.3
G148L | -14.8
D96Q | 3.59
